Measurements pooled from the literature.
Compare with care: the assays were run in different laboratories. Numbers after ± are the reported error.
Chain of UniProt P24462 (whole entry, looked up): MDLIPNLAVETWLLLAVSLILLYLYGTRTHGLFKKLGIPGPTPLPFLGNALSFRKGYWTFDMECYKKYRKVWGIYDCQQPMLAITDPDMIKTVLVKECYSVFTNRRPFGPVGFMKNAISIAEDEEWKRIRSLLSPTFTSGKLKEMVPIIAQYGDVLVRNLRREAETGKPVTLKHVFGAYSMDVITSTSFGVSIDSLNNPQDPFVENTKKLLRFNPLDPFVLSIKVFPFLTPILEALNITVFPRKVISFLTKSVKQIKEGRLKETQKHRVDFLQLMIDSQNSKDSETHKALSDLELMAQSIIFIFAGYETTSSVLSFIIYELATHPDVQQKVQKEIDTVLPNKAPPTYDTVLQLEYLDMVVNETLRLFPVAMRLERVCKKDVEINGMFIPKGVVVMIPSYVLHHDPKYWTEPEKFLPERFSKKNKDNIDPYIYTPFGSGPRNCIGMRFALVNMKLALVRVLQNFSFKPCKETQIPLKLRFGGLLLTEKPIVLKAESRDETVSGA
Chain of UniProt P00761 (whole entry, looked up): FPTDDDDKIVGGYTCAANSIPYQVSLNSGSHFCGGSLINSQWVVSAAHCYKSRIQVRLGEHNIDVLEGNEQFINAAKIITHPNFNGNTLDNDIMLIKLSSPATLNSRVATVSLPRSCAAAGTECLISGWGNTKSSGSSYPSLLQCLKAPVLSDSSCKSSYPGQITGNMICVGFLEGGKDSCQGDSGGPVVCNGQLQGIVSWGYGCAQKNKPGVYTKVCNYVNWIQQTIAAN

The viability of `NC(=O)c1ccc(I)c([N+](=O)[O-])c1` is reported as 146% (OCI-Ly1; 0.5 µM, 120 h).
For `Cc1cc(N)c2c(OCC(C)(C)C(=O)NC(C)C)cccc2n1`, “mean revertant colonies” read 79 colonies/plate (Salmonella typhimurium; reverse mutation, plate incorporation; TA100; 5000 µg/plate, with rat liver S9).
`COc1c(O)c(C)cc2c1C(=O)c1c(ccc(O)c1O)C2=O` gave a cell viability of 89.3 ± 5.72% (HepaRG co-cultured with HK-2; MTT; 16.67 µM, 24 h; relative to: untreated control).
`CNCCN1CCN(c2cnc3c(cc(C(=O)NCc4ccc(Cl)cc4)c(=O)n3CC(=O)N3CC(C)(F)C3)n2)C1=O.Cl` has a selectivity ratio of 113 (human cytomegalovirus; MRC-5, AD169-GFP; relative to: CC50 over EC50).
`Cc1onc(-c2ccccc2)c1-c1ccc(S(N)(=O)=O)cc1` has a metabolic activity of 0.98 ± 0.04 (COS-7; WST-8; 50 µM, 24 h, 0.1% DMSO, unit not given; relative to: vehicle control).
The cell viability of `Cc1cc(O)c2c(c1)C(=O)c1cccc(O)c1C2=O` is reported as 87.1 ± 7.09% (HepaRG co-cultured with HK-2; MTT; 33.33 µM, 48 h; relative to: untreated control).
`Cn1cc(-c2ccc(-c3cncc(Cl)c3N3CCC4(CCNC4=O)CC3)cc2)cn1`: “log2 fold change” 1.55 (COLO 205; gene expression, microarray, measured: IRF7 mRNA; concentration not given, 6 h; relative to: untreated cells).
The cell viability of `O=C(O)c1cc(O)c2c(c1)C(=O)c1cccc(O[C@@H]3O[C@H](CO)[C@@H](O)[C@H](O)[C@H]3O)c1C2=O` is reported as 98.8 ± 9.42% (HepaRG co-cultured with HK-2; MTT; 66.67 µM, 24 h; relative to: untreated control).
`Cc1cc(Nc2ccc(S(F)(F)(F)(F)F)cc2)n2nc(C(C)(F)F)nc2n1`: “patients with eye disorders” 0% (Plasmodium falciparum; P. falciparum malaria patients; oral, 250 mg).
`CC1(F)CN(C(=O)Cn2c(=O)c(C(=O)NCc3ccc(Cl)cc3)cc3nc(N4CCN(CC(=O)O)C4=O)cnc32)C1` gave a selectivity index of greater than 31.4 (human cytomegalovirus; GFP reporter; AD169-GFP; retest; relative to: CC50 over EC50).
With `CCCc1cc(C)[nH]c(=O)c1CNC(=O)c1cc(-c2ccnc(N3CCN(C)CC3)c2)cc2c1cnn2C(C)C` the viability was 91.2% (OCI-Ly1; 0.5 µM, 120 h).
`CC(C)C[C@H](NC(=O)C[C@H](O)[C@H](CC(C)C)NC(=O)[C@H](Cc1c[nH]cn1)NC(=O)CNC(=O)[C@@H](NC(=O)[C@H](C)NC(=O)[C@H](Cc1c[nH]c2ccccc12)NC(=O)[C@H](CCC(N)=O)NC(=O)[C@@H](Cc1ccccc1)NC(=O)COCCOCCNC(=O)CCC(C(=O)O)N1CCN(CC(=O)O)CCN(CC(=O)O)CC1)C(C)C)C(N)=O` (some centres unmarked) [lutetium-177 labelled] has a tissue uptake of 0.1 ± 0.02 %ID/g (female BALB/c nu/nu mice, pancreas; intravenous, 50 pmol, 24 h).
For `COc1c(O)c(C)cc2c1C(=O)c1c(cc(O)c(O)c1O)C2=O`, the cell viability was 63 ± 9.83% (HepaRG co-cultured with HK-2; MTT; 33.33 µM, 24 h; relative to: untreated control).
For `CC1(F)CN(C(=O)Cn2c(=O)c(C(=O)NCc3ccc(Cl)cc3)cc3nc(N4CCCC4=O)cnc32)C1`, the selectivity ratio was 93.8 (human cytomegalovirus; MRC-5, AD169-GFP; relative to: CC50 over EC50).
With `CC[C@H]1[C@@H](O)[C@@H]2[C@H](CC[C@]3(C)[C@@H]([C@H](C)CCNC(=O)NS(=O)(=O)c4ccc(C(C)(C)C)cc4)CC[C@@H]23)[C@@]2(C)CC[C@@H](O)C[C@@H]12` the Vd/F was 218 L (ATP-dependent translocase ABCB1 (ABCB1, Homo sapiens, UniProt P08183); human, plasma; dose not given, geometric mean, added: quinidine).
`COc1cc2c(c(O)c1OC)C(=O)c1c(cc(C)c(O[C@@H]3O[C@H](CO)[C@@H](O)[C@H](O)[C@H]3O)c1OC)C2=O` has a cell viability of 52.2 ± 10.9% (HepaRG co-cultured with HK-2; MTT; 133.33 µM, 48 h; relative to: untreated control).
For `CCN(CC)CCCC(C)Nc1ccnc2cc(Cl)ccc12` (centres unmarked), the necrotic cells was 0.31 ± 0.16 (COS-7; 50 µM, 24 h, 0.1% DMSO, unit not given; relative to: vehicle control).
`CN1CCN(c2cnc3c(cc(C(=O)NCc4ccc(Cl)cc4)c(=O)n3CC(=O)N3CC(C)(F)C3)n2)C1=O` gave a selectivity index of greater than 299 (human cytomegalovirus; GFP reporter; AD169-GFP; retest; relative to: CC50 over EC50).
For `CC(C)n1c(/C=C/C(O)CC(O)CC(=O)O)c(-c2ccc(F)cc2)c2ccccc21` (centres unmarked), the apoptotic cells was 1.61 ± 0.25 (COS-7; 6 µM, 24 h, 0.1% DMSO, unit not given; relative to: vehicle control).
For `O=C(/C=C/C=C/C=C/C1CCCCC1)NC1=C[C@@](O)(/C=C/C=C/C=C/C(=O)NC2=C(O)CCC2=O)[C@@H]2O[C@@H]2C1=O`, the GI50 was 24.7 µM (PaTu 8988t; CellTiter-Glo; 78 h).
Under “revertant colonies per plate”, `CC[C@H](CO)N(CCN(N=O)[C@H](CC)CO)N=O` is recorded as 33.3 ± 2 (Salmonella typhimurium; mutagenicity, Ames plate incorporation; TA1535; 2500 µg/plate, without S9, methanol).
`COc1cc2ncnc(Nc3ccc(Oc4ccccc4)c(C)c3C)c2cc1OC.Cl` has a viability of 0.69 (COLO 205 (BRAF V600E); resazurin; 3 µM, 72 h, unit not given, added: trametinib; relative to: DMSO).
With `O=C1c2cccc(O)c2C(=O)c2c(O)cc(CO)cc21` the cell viability was 92.6 ± 9.17% (HepaRG co-cultured with HK-2; MTT; 33.33 µM, 24 h; relative to: untreated control).
With `COc1cccc2c(Nc3ccc4[nH]c(C(=O)N/N=C/c5ccc(SC)cc5)cc4c3)cc(C)nc12` the necrotic cells was 0.61 ± 0.23 (COS-7; 3 µM, 24 h, 0.1% DMSO, unit not given; relative to: vehicle control).
`CC(C)C[C@H](NC(=O)C[C@H](O)[C@H](CC(C)C)NC(=O)[C@H](Cc1c[nH]cn1)NC(=O)CNC(=O)[C@@H](NC(=O)[C@H](C)NC(=O)[C@H](Cc1c[nH]c2ccccc12)NC(=O)[C@H](CCC(N)=O)NC(=O)[C@@H](Cc1ccccc1)NC(=O)COCCOCCNC(=O)CCC(C(=O)O)N1CCN(CC(=O)O)CCN(CC(=O)O)CCN(CC(=O)O)CC1)C(C)C)C(N)=O` (some centres unmarked) [lutetium-177 labelled] gave a tissue uptake of 0.15 ± 0.06 %ID/g (BALB/c nu/nu mice, heart; intravenous, 500 pmol, 1 h, added: PA 300 µg).
For `CC[C@H](C)[C@H](NC(=O)[C@H](CO)NC(=O)[C@H](Cc1ccc(O)cc1)NC(=O)[C@H](CC(=O)O)NC(=O)[C@H](CO)NC(=O)[C@@H](NC(=O)[C@H](Cc1ccccc1)NC(=O)[C@@H](NC(=O)CNC(=O)[C@H](CCC(=O)O)NC(=O)[C@H](C)NC(=O)[C@@H](N)Cc1ccc(O)cc1)[C@@H](C)O)[C@@H](C)CC)C(=O)N[C@@H](C)C(=O)N[C@@H](CCSC)C(=O)N[C@@H](CC(=O)O)C(=O)N[C@@H](CCCCN)C(=O)N[C@H](C(=O)N[C@@H](Cc1c[nH]cn1)C(=O)N[C@@H](CCC(N)=O)C(=O)N[C@@H](CCC(N)=O)C(=O)N[C@@H](CC(=O)O)C(=O)N[C@@H](Cc1ccccc1)C(=O)N[C@H](C(=O)N[C@@H](CC(N)=O)C(=O)N[C@@H](Cc1c[nH]c2ccccc12)C(=O)N[C@@H](CC(C)C)C(=O)N[C@@H](CC(C)C)C(=O)N[C@@H](C)C(=O)N[C@@H](CCC(N)=O)C(=O)N[C@@H](CCCCN)C(=O)NCC(=O)N[C@@H](CCCCN)C(=O)N[C@@H](CCCCN)C(=O)N[C@@H](CC(N)=O)C(=O)N[C@@H](CC(=O)O)C(=O)N[C@@H](Cc1c[nH]c2ccccc12)C(=O)N[C@@H](CCCCN)C(=O)N[C@@H](Cc1c[nH]cn1)C(=O)N[C@@H](CC(N)=O)C(=O)N[C@H](C(=O)N[C@H](C(=O)N[C@@H](CCC(N)=O)C(=O)O)[C@@H](C)O)[C@@H](C)CC)C(C)C)[C@@H](C)CC`, the fragment formed was 33% (Trypsin (Sus scrofa, UniProt P00761); LC-MS, measured: fragment 1-30; 18 h, pH 8.0, 37 °C, added: trypsin 2.5 mg/mL).
Under “IC50 fold shift”, `Cc1cnc(C(=O)N[C@H]2CCCCC/C=C\[C@@H]3C[C@@]3(C(=O)NS(=O)(=O)C3CC3)NC(=O)[C@@H]3C[C@@H](Oc4nc5ccccc5c5ccccc45)CN3C2=O)cn1` is recorded as 2.11 (Cytochrome P450 3A7 (CYP3A7, Homo sapiens, UniProt P24462); enzyme activity, time-dependent inhibitor; recombinant enzyme; 0 min preincubation, with NADPH, added: DHEA-S 5 µM; relative to: 30 min preincubation).
`C=C(c1ccc(C(=O)O)cc1)c1cc2c(cc1C)C(C)(C)CCC2(C)C` gave a confluence of 0.34 ± 0.51 (COS-7; 100 µM, 24 h, 0.1% DMSO, unit not given; relative to: control).
The EC50 of `CN1CC2c3ccccc3Oc3ccc(Cl)cc3C2C1` (centres unmarked) is reported as 0.00912 µM (5-hydroxytryptamine receptor 1A (HTR1A, Homo sapiens, UniProt P08908, K345A); agonist).
The confluence of `CCN(CC)Cc1cc(Nc2ccnc3cc(Cl)ccc23)ccc1O` is reported as 0.79 ± 0.2 (COS-7; 30 µM, 24 h, 0.1% DMSO, unit not given; relative to: vehicle control).
The cell viability of `COc1cc(O)c2c(c1)C(=O)c1cc(C)cc(O)c1C2=O` is reported as 93.5 ± 14% (HepaRG co-cultured with HK-2; MTT; 66.67 µM, 24 h; relative to: untreated control).
With `CCC(=O)NS(=O)(=O)c1ccc(-c2c(-c3ccccc3)noc2C)cc1` the metabolic activity was 0.97 ± 0.02 (COS-7; WST-8; 100 µM, 24 h, 0.1% DMSO, unit not given; relative to: control).
For `Cc1cc(C(=O)NC(C)(C)COc2cccc3c2C(N)=NS(=O)(=O)N3)cc(C)n1`, the cytotoxicity was 10% (human peripheral blood lymphocytes; CBPI, preliminary test; 20 µg/mL, 4 h, added: rat liver S9; relative to: vehicle control).
With `CN(C)C(=O)CCc1nc(-c2ccccc2)c(-c2ccccc2)o1` the metabolic activity was 0.96 ± 0.02 (COS-7; WST-8; 50 µM, 24 h, 0.1% DMSO, unit not given; relative to: vehicle control).
`CC1(F)CN(C(=O)Cn2c(=O)c(C(=O)NCc3ccc(Cl)cc3)cc3nccnc32)C1` has a selectivity ratio of greater than 10.6 (human cytomegalovirus; MRC-5, AD169-GFP; relative to: CC50 over EC50).

Repeated from above:
With `CN(C)C(=O)CCc1nc(-c2ccccc2)c(-c2ccccc2)o1` the metabolic activity was 0.96 ± 0.02 (COS-7; WST-8; 50 µM, 24 h, 0.1% DMSO, unit not given; relative to: vehicle control).
`CC1(F)CN(C(=O)Cn2c(=O)c(C(=O)NCc3ccc(Cl)cc3)cc3nccnc32)C1` has a selectivity ratio of greater than 10.6 (human cytomegalovirus; MRC-5, AD169-GFP; relative to: CC50 over EC50).
